# Experimental data from different studies.
# Protocols differ between the studies behind these lines. ± marks the error that the study gave.
SMILES,tested on,assay,test system,conditions,how to read,measurement,value
Cc1ncc2n1-c1ccc(Cl)cc1C(c1ccccc1F)=NC2,,,"healthy men, plasma","oral, 7.5 mg, without amenamevir",,Cmax arithmetic mean,35.2 ng/mL
COc1ccsc1CNCC[C@@]1(c2ccccn2)CCOC2(CCCC2)C1,,,"human, end-stage renal disease","intravenous, dose not given",reference: normal renal function,exposure increase,~20%
Cc1ncc2n1-c1ccc(Cl)cc1C(c1ccccc1F)=NC2,,,"healthy human volunteers, plasma","oral, 5 mg single dose, geometric mean, with: double-strength cranberry juice",,AUC(0-last),0.259 µM·h
CCCCCc1cc(O)c2c(c1)OC(C)(C)[C@@H]1CCC(C)=C[C@@H]21,,,recombinant CYP2C9 microsomes,"0.0016 mg/mL protein, no FABP1",,unbound fraction,0.42 ± 0.04
CN1CC[C@@]23CCCC[C@@H]2[C@@H]1Cc1ccc(O)cc13,,,"Wistar rat, both sexes, plasma","oral, 5 mg/kg DEM, DEM 2 h after pretreatment, with: TCE 400 mg/kg single pretreatment",,AUC(0-t),53.4 ± 23.8 ng·h/mL
CC(C)C[C@@H]1NC(=O)CN(C)C(=O)[C@H](Cc2ccccc2)NCc2cc(c[nH]2)CNC1=O,,,PAMPA,"100 µM, 17 h, pH 6.4",,Papp,0.178 ×10⁻⁶ cm/s
CCCCCCCCCCC(=O)O[C@H]1CC[C@H]2[C@@H]3CCC4=CC(=O)CC[C@]4(C)[C@H]3CC[C@]12C,,,human blood,"600 ng/mL, 60 min, 4 °C, NaF 5 mg/mL, K2 oxalate 4 mg/mL",,testosterone concentration,494 ng/dL
CN[C@@](C)(C[18F])C(=O)O,DU-145 tumour model,,"host not given, kidney","1 h, tumour-bearing",,tracer uptake,6 %ID/g
C[C@H]1CNCCc2ccc(Cl)cc21,,,"male Sprague-Dawley rat, plasma","subcutaneous, 1 mg/kg, single dose",,AUC(0-inf),63.7 ng·h/mL
N[C@@]1(c2ccccc2Cl)CCC[C@@H](O)C1=O,,,"male CD-1 mice, plasma","50 mg/kg, range of two cohorts",,Cmax,5640 to 5900 ng/mL
COc1ccc2c(c1)[C@]13CCCC[C@@H]1[C@H](C2)N(C)CC3,,,"Wistar rat, both sexes, plasma","oral, 5 mg/kg, 2 h after pretreatment, with: single quinidine 2.5 mg/kg",,MRT(0-t),182 ± 62.4 min
CCCN(CCC)C(=O)Cc1c(-c2ccc(Cl)cc2)nc2ccc(Cl)cn12,,"cytochrome c release, ELISA",BALB/cByJ female mouse liver mitochondria,30 min,reference: alamethicin maximal release,EC20,395 µM
C[C@]12CC[C@H]3[C@@H](CCC4=CC(=O)CC[C@@]43C)[C@@H]1CC[C@@H]2O,,,"eugonadal men, pooled serum","before dosing, baseline",,share of total drug-related species,8.6%
C[C@]12CC[C@H]3[C@@H](CCC4=CC(=O)CC[C@@]43C)[C@@H]1CC[C@@H]2O,,metabolic stability,"male beagle dog, liver microsomes","10 µM, pH 7.4",,half-life,25.5 min
C=C1C[C@@H]2[C@H](CC[C@]3(C)C(=O)CC[C@@H]23)[C@@]2(C)C=CC(=O)C=C12,,LC-MS/MS,"postmenopausal breast cancer women, plasma","oral, 25 mg/day, 2 h, AKR7A2 A142T homozygous variant",,median plasma concentration,22.4 ng/mL
C[C@@H]1N=C(c2ccccc2F)c2cc(Br)ccc2NC1=O,,,"male Wistar rat, plasma","intraperitoneal, 10 mg/kg, 1 h",,concentration,1400 nM
Cc1ncc2n1-c1ccc(Cl)cc1C(c1ccccc1F)=NC2,,,"human CYP3A5 expressers, serum","oral, with: ketoconazole 400 mg",,Tmax,54 min
CN(C)CCc1c[nH]c2ccc(O)cc12,,,"male FVB/N mouse, serum","intraperitoneal, 2 mg/kg of 5-MeO-DMT, metabolite of 5-MeO-DMT",,Tmax,~13 min

# Repeated from above:
SMILES,tested on,assay,test system,conditions,how to read,measurement,value
CN(C)CCc1c[nH]c2ccc(O)cc12,,,"male FVB/N mouse, serum","intraperitoneal, 2 mg/kg of 5-MeO-DMT, metabolite of 5-MeO-DMT",,Tmax,~13 min
